Results of several laboratories.
Every numbered part comes from another study and shows a few of its results, in no order.

Block 1 — method: protein-binding microarray; form: double-stranded DNA, one strand shown; medium: in vitro; tested at: 250 nM; setting: 60-bp whole probe; together with: salmon DNA 0.4 mg/ml; relative to: random background probes; reading: higher = stronger binding; all sequences stand within: GCCTAGCAC … GTCTTGATTCGCTTGACGCTGCTG
Target: Interferon regulatory factor 7, full length, phosphomimetic (IRF7, Homo sapiens, UniProt Q92985, residues 1-503, S101K/S471D/S472D/S475D/S476D/S477D/S483D/S484D/S487D)
Target sequence (chain): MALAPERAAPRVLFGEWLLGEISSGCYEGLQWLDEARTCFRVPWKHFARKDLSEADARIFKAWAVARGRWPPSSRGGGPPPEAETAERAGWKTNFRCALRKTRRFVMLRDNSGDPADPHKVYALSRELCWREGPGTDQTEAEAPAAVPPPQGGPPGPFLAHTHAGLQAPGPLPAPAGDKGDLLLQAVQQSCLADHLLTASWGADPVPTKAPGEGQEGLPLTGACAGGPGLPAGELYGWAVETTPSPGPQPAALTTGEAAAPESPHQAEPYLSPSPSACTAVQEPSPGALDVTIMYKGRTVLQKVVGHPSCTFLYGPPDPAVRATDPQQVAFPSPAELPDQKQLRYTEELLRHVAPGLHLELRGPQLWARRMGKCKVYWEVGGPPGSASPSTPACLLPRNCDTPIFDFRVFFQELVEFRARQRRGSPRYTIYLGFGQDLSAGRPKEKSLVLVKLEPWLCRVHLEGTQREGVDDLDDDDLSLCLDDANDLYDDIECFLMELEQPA
For `TAGGTTTTCTGGTTCCCATTGTGCTAG`, the log fluorescence was 1.67 z-score.
The log fluorescence of `TTAGGATTCGGTATCGGTTAGTGCTAG` is reported as 4.19 z-score.
The log fluorescence of `TCACGAGTCCCTATCTCACTGTGCTAG` is reported as -0.096 z-score.
For `TTAGGACTGGGGTTTCGGTTCGTGCTA`, the log fluorescence was 9.09 z-score.
For `TCAGGTTCCCATTCCAGACTGTGCTAG`, the log fluorescence was 2.1 z-score.
`GACGGACTGGCGTTTCGGGACGTGCTA` gave a log fluorescence of -0.405 z-score.
For `GACGGTTTCGTGTTTCGGGACGTGCTA`, the log fluorescence was 10.3 z-score.
`TGAGATTTCAGTATCGATTAGTGCTAG` gave a log fluorescence of 0.814 z-score.

Block 2 — method: RNA Bind-n-Seq; form: RNA; medium: in vitro; tested at: 365 nM; relative to: no-protein control; reading: higher = stronger binding
Target: RNA binding protein fox-1 homolog 2, RRM domain, GST-SBP tag (RBFOX2, Homo sapiens, UniProt O43251-10, residues 100-194)
Setting: natural RNA segment, single round, ends assumed
All sequences stand within: GGGAGUUCUACAGUCCGACGAUC … UGGAAUUCUCGGGUGCCAA
Target sequence (chain): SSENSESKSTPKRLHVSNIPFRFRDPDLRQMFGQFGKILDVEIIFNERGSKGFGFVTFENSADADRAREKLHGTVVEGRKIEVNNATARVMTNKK
Under “RBNS enrichment (R)”, `GUGGACCCAGAGCGACCCAGAUUGGGUGGCUGGGGCGGGGCAGUAGGGUUCAUUCUCCUAGUGCCCCAAGUCCCCUCCUGCCUGGGGCUGCCCAGGGAUUGGACCUGGAC` is recorded as 0.212.
Under “RBNS enrichment (R)”, `GAACAAAAGCACAGAGAUGGCUCAGUGGUUAGGAGCACUGACUCCUUUUCCGUAGGUCCUGAGUUCAAAUCCCAGUAACCACAUGGUGGCUGACAACCACCCGUAAUGAG` is recorded as 0.281.
Under “RBNS enrichment (R)”, `AUGGUCUUGCCCCAGCUGGCCCUGGCACAGGAGUUCUCUUACCUGGCUGGUGAGUGGCCUGUGUUAGUCUUGUGAGGACCUCGAGGAACCUAAAAGCUCAGAUGCACUUA` is recorded as 0.398.
For `AGGGCCCACACUUAGAAGGACCCCACACUUGGUUCAAGGCUCUGCUAUAGCGGAAAUUCUUAAUAAUGUUUGAAGAAGGGCCCCAUGAUUUCAUUUUGUGCUGAGCCCUC`, “RBNS enrichment (R)” read 0.558.
For `UGGCAAUUCCGCUGGAGCUGUCUGCCAAAAGAAACUGCCUACAGACAUCAUCACAGCAGCCUCCUCACUUGGGUACUACAGUGUGGAAGCUGAGUGCAUAUGGUAUAUUU`, “RBNS enrichment (R)” read 0.187.
`UGGAGUAGACCCCUGGCUGGUAAGGGCCAAGUCCCACCGGUUGCUUCUGGGAAGGGGUUUCUAACACUAGUCUGUGUGCUGUGGUUCCUGGGGUGCCCUCCACUGCCCUC` — result for “RBNS enrichment (R)”: 1.86.
Under “RBNS enrichment (R)”, `UCUCCACUGUUAAACUCUGGGGAGUGGUAUCAGCUUUUGAAACCCUGCUCUAGACUCUUACAAAAUGGCUACACUUAGCACAUACUCUGCCCUGGCUAUAUAUUAUAUUG` is recorded as 0.503.
`GACAAUGGGAACAUUGCUGAAGAACUGAGCAUUCUCAAAUGGAACACAGACAGUGUAGAAGAAUUCCUGAGUGAAAAGUUGGAACGCAUAUAAAUCUUGCUUAAAUUUUG` — result for “RBNS enrichment (R)”: 0.526.

Block 3 — cell line: HEK-293T/ACE2; tested at: concentration not given; time: 16 (unit not given); relative to: vehicle
With `N[C@@H](CC(=O)N1CCn2c(nnc2C(F)(F)F)C1)Cc1cc(F)c(F)cc1F` the viability was 95%.
For `Cc1ccc(C(=O)c2ccc(CC(=O)O)n2C)cc1`, the viability was 105%.
`C=C1CC[C@@]2(O)[C@H]3Cc4ccc(O)c5c4[C@@]2(CCN3CC2CC2)[C@H]1O5` gave a viability of 101%.

Block 4 — method: universal PBM; form: double-stranded DNA, one strand shown; medium: in vitro; tested at: not given; reading: higher = stronger binding
Target: Sal-like protein 4, full length isoform B (SALL4, Homo sapiens, UniProt Q9UJQ4-2, residues 1-616)
Setting: 8-mer, flanks averaged, mean of replicates
Construct (chain): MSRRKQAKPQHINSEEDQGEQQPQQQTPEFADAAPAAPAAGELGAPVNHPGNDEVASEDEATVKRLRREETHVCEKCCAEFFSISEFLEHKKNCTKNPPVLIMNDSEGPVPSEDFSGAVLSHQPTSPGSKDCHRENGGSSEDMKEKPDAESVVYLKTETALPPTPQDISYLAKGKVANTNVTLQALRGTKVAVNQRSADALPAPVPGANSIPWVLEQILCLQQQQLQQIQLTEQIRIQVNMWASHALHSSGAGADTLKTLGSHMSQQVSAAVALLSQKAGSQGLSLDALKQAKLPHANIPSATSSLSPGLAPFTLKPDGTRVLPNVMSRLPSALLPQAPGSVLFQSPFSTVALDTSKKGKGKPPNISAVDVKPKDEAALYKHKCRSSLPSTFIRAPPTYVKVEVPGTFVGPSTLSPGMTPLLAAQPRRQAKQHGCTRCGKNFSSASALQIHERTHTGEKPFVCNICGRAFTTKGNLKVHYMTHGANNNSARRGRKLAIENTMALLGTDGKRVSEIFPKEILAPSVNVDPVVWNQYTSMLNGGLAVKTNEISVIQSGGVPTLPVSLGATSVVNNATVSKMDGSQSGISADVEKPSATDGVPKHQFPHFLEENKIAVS
The E-score of `AAAGTTCC` is reported as -0.0922.
For `ACAAGATC`, the E-score was -0.0125.
For `ATGGACGG`, the E-score was 0.00192.
`AGAAACGC` gave an E-score of -0.115.
`CATGCACC` gave an E-score of -0.08.
The E-score of `CATATGGA` is reported as 0.109.
With `ACAGTCTA` the E-score was 0.0483.
For `TCCGCTCA`, the E-score was -0.191.

Block 5 — organism: SARS-CoV-2; effect on: cytopathic effect; cells: Vero E6; tested at: 10 µM
With `O=C(O)c1ccc(SSc2ccc(C(=O)O)cn2)nc1` the inhibition was 4.3%.
With `COC(=O)CC[C@H](NC(=O)[C@H](CC(=O)OC)NC(=O)OCc1ccccc1)C(=O)N[C@H](C(=O)N[C@@H](CC(=O)OC)C(=O)CF)C(C)C` the inhibition was 7.5%.
For `Nc1nnc(Sc2ncc([N+](=O)[O-])s2)s1`, the inhibition was -33.1%.
`CCC[C@H](NC(=O)/C(C#N)=C/c1cccc(Br)n1)c1ccccc1` has an inhibition of -39.9%.
For `c1ccc2sc(SSc3nc4ccccc4s3)nc2c1`, the inhibition was 9.8%.

Block 6 — effect on: enzyme activity; mode: inhibitor; tested at: 20 µM
Target: Replicase polyprotein 1ab, polymerase (rep, Severe acute respiratory syndrome coronavirus 2, UniProt P0DTD1)
The inhibition of `C[C@@H]1O[C@@H](OC[C@H]2O[C@@H](Oc3c(-c4ccc(OCCO)c(OCCO)c4)oc4cc(OCCO)cc(O)c4c3=O)[C@H](O)[C@@H](O)[C@@H]2O)[C@H](O)[C@H](O)[C@H]1O` is reported as 10.1%.
For `O=S(=O)(O)CCCS(=O)(=O)O`, the inhibition was 1.5%.
With `CN(C)CC[C@@H](c1ccc(Cl)cc1)c1ccccn1` the inhibition was 6.1%.
For `O=c1[nH]c(=O)n(C2CCCO2)cc1F` (stereo not drawn), the inhibition was -1.61%.
`O=C(OCCO)c1ccccc1O` has an inhibition of -10.1%.
`O=C(CCCN1CCC(n2c(=O)[nH]c3ccccc32)CC1)c1ccc(F)cc1` has an inhibition of -1.58%.
The inhibition of `CC#CCn1c(N2CCC[C@@H](N)C2)nc2c1c(=O)n(Cc1nc(C)c3ccccc3n1)c(=O)n2C` is reported as -0.27%.
`N#C/C(=C\c1cn(-c2ccccc2)c2ccccc12)C(=O)O` has an inhibition of 1.28%.
With `O=S(=O)(c1ccccc1)N(CC(F)(F)F)c1ccc(C(O)(C(F)(F)F)C(F)(F)F)cc1` the inhibition was 0.46%.
`COCCOCCOc1ccc(C2=N[C@@](C)(C(=O)O)CS2)c(O)c1` gave an inhibition of -9.8%.
With `COC(=O)c1cccnc1` the inhibition was -1.44%.
With `CNCCC=C1c2ccccc2CCc2ccccc21` the inhibition was 17.5%.
With `[O-][n+]1cccc(CO)c1` the inhibition was -0.16%.
With `O=C(CC12CC3CC(CC(C3)C1)C2)Nc1cccc2nc(NCCNCCO)ccc12` the inhibition was -3.34%.
`Oc1nc(O)c2cn[nH]c2n1` gave an inhibition of -3.38%.
The inhibition of `COc1ccc(C(=O)Nc2c(Cl)cncc2Cl)cc1OC1CCCC1` is reported as -6.41%.
With `FC(F)(F)C(F)(F)C(F)(F)C(F)(F)C(F)(F)C(F)(F)C(F)(F)C(F)(F)Br` the inhibition was -2.42%.
`COc1ccc(C(Cl)=C(c2ccc(OC)cc2)c2ccc(OC)cc2)cc1` has an inhibition of 0.53%.
`CN(CC[C@@H](Oc1ccc(-c2ccccc2)cc1)c1ccc(F)cc1)CC(=O)O` gave an inhibition of 5.59%.
With `Nc1nc(NC2CC2)c2ncn([C@H]3C=C[C@@H](CO)C3)c2n1` the inhibition was 26.4%.
For `CN/C(=N\c1ccc(C2=NNC(=O)CC2C)cc1)NC#N` (stereo not drawn), the inhibition was -1.89%.
For `O=C1NCN(c2ccccc2)C12CCN(CC1COc3ccccc3O1)CC2` (stereo not drawn), the inhibition was 14.2%.
`COc1cc(C)[nH]c(=O)c1CNC(=O)c1c(C)n([C@H](C)C2CCOCC2)c2ccccc12` gave an inhibition of -1.72%.
For `CC1=C(CC(=O)O)c2cc(F)ccc2/C1=C\c1ccc(S(C)(=O)=O)cc1`, the inhibition was -1.73%.
With `CC(S)C(=O)NCC(=O)O` (stereo not drawn) the inhibition was 6.82%.

Some of these lines once more (block 6):
For `O=S(=O)(O)CCCS(=O)(=O)O`, the inhibition was 1.5%.
The inhibition of `COc1ccc(C(=O)Nc2c(Cl)cncc2Cl)cc1OC1CCCC1` is reported as -6.41%.
With `O=S(=O)(c1ccccc1)N(CC(F)(F)F)c1ccc(C(O)(C(F)(F)F)C(F)(F)F)cc1` the inhibition was 0.46%.
With `CC(S)C(=O)NCC(=O)O` (stereo not drawn) the inhibition was 6.82%.
